# Results of several laboratories.
# Protocols differ between the studies behind these lines.
SMILES,test,system,conditions,endpoint,value
C[C@@H](Oc1cc(-c2cnn(C3CCNCC3)c2)cnc1N)c1c(Cl)ccc(F)c1Cl,,porcine brain polar lipids,"10 µM, pH 7.4, 0.2% DMSO",unbound fraction in brain,0.0024
N=C(CC(O)c1cc2c(F)cc(F)cc2c2cc(C(F)(F)F)ccc12)Nc1ccc(F)c(F)c1 (stereo not shown),,pooled human liver microsomes,"1 µM, pH 7.4",unbound intrinsic clearance,480 µL/min/mg
N#C[C@@]1(c2ccc3c(N)ncnn23)O[C@H](CO)[C@@H](O)[C@H]1O,,mouse plasma,"1 to 100 µM, mean over concentrations",unbound fraction,0.925
C#Cc1cccc(Nc2ncnc3cc(OCCOC)c(OCCOC)cc23)c1,,brain,"100 mg/kg, 2 h",unbound brain concentration,128 ng/g
CO[C@H]1C[C@@H]2CC[C@@H](C)[C@@](O)(O2)C(=O)C(=O)N2CCCC[C@H]2C(=O)O[C@H]([C@H](C)C[C@@H]2CC[C@@H](OC(=O)NCCOCCOCCOCCOCCOCCOCCOCCOCCC(=O)N3CCc4cc(Cn5nc(-c6ccc7oc(N)nc7c6)c6c(N)ncnc65)ccc4C3)[C@H](OC)C2)C[C@@H](O)[C@H](C)/C=C(\C)[C@@H](O)[C@@H](OC)C(=O)[C@H](C)C[C@H](C)/C=C/C=C/C=C/1C,ultracentrifugation,mouse plasma,0.5 µM,unbound fraction,0.001
O=C1CC[C@H](N2Cc3cc(N4CCN(CC5CCN(c6ccc([C@@H]7c8ccc(O)cc8CC[C@@H]7c7ccccc7)cc6)CC5)CC4)ccc3C2=O)C(=O)N1,rapid equilibrium dialysis,SD rat plasma,"2.5 µM, 6 h",unbound fraction in plasma,0.046
COCCOc1cnc2ccn([C@H](C)c3nnc4c(F)cc(-c5cnn(C)c5)cn34)c(=O)c2c1,,"cancer patients, plasma","oral, 200 mg once daily, day 1",unbound Ctrough,312 ng/mL
Cc1cc(C)c(CNC(=O)c2cc(Cl)c3c(c2C)O[C@@](C)([C@H]2CC[C@H](N(C)C)CC2)O3)c(=O)[nH]1,ultracentrifugation,"solution, alpha-1 acid glycoprotein, 0.1%","600 ng/mL, 160 min",unbound fraction,0.0772
CN(C(=O)C(C)(C)c1cc(C(F)(F)F)cc(C(F)(F)F)c1)c1cnc(N2C[C@H]3COCCN3C[C@H]2CO)cc1-c1ccc(F)cc1[14CH3],,pooled human liver microsomes,"pH 7.4, substrate depletion",unbound intrinsic clearance,1490 µL/min/mg
CCO[C@H]1CCN(Cc2c(OC)cc(C)c3[nH]ccc23)[C@H](c2ccc(C(=O)O)cc2)C1,,severe hepatic impairment patients,"oral, 200 mg, mean",unbound AUC(0-12),9460 ng·h/mL
